Measurements pooled from the literature.
Several values in a cell are separate wells, animals, samples, runs or records. ± gives the spread as reported.

Cc1noc(C)c1Cn1cc(N2C(=O)CN(Cc3cccc(OS(=O)(=O)O)c3)C2=O)cn1
Tmax (rat Sprague-Dawley male, plasma; oral, 100 mg/kg of parent drug): 4 h

CC(C)C[C@H](NC(=O)[C@H](CCCCN)NC(=O)CNC(=O)[C@H](CC(C)C)NC(=O)[C@@H](NC(=O)[C@@H]1CSSC[C@H](N)C(=O)N[C@@H](CO)C(=O)N[C@@H](CC(N)=O)C(=O)N[C@@H](CC(C)C)C(=O)N[C@@H](CO)C(=O)N[C@@H]([C@@H](C)O)C(=O)N1)C(C)C)C(=O)N[C@@H](CO)C(=O)N[C@@H](CCC(N)=O)C(=O)N[C@@H](CCC(=O)O)C(=O)N[C@@H](CC(C)C)C(=O)N[C@@H](Cc1c[nH]cn1)C(=O)N[C@@H](CCCCN)C(=O)N[C@@H](CC(C)C)C(=O)N[C@@H](CCC(N)=O)C(=O)N[C@H](C(=O)N[C@@H](Cc1ccc(O)cc1)C(=O)N1CCC[C@H]1C(=O)N[C@@H](CCCNC(=N)N)C(=O)N[C@H](C(=O)N[C@@H](CC(N)=O)C(=O)N[C@H](C(=O)NCC(=O)N[C@@H](CO)C(=O)NCC(=O)N[C@H](C(=O)N1CCC[C@H]1C(N)=O)[C@@H](C)O)[C@@H](C)O)[C@@H](C)O)[C@@H](C)O
Tmax (ELISA; hairless Sprague-Dawley rat, male, serum; subcutaneous, 3 µg, coating dissolved from microneedles): 0.25 h

Cc1noc(C)c1Cn1cc(N2C(=O)CN(Cc3cccc(O[C@@H]4O[C@H](C(=O)O)[C@@H](O)[C@H](O)[C@H]4O)c3)C2=O)cn1
Tmax (rat Sprague-Dawley male, plasma; oral, 100 mg/kg of parent drug): 0.5 h

Cc1cc(-c2ccc(NC(=S)Nc3ccc(CNC(=O)CCC(C(=O)O)N4CCN(CC(=O)O)CCN(CC(=O)O)CC4)cc3)c(C)c2)ccc1/N=N/c1ccc2c(S(=O)(=O)O)cc(S(=O)(=O)O)c(N)c2c1O (stereo not shown)
Tmax (dynamic PET/CT; Sprague-Dawley rats female, lumbar spinal canal L1-L2; intrathecal lumbar infusion, median): 1.25 h

COc1cc(C=CC(=O)OCC2OC(OC3C(c4c(OC)cc5oc(-c6ccc(O)cc6)cc(=O)c5c4O)OC(CO)C(O)C3O)C(O)C(O)C2O)ccc1O (stereo not shown)
Tmax (male Sprague-Dawley rat, PCPA-induced insomnia, plasma; oral, 6.8 g/kg): 0.17 h

Ac-CSNLSTCXLGRLSQDLHRLQTYPKTDVGANAP-NH2 (N-acetyl, C-amide)
Tmax (ELISA; peptide, high-fat diet Sprague Dawley rats, plasma; subcutaneous, 4 nmol/kg): 0.33 h

N[C@H](COc1ccccc1C(F)(F)F)c1ccccc1
Tmax (male Sprague-Dawley rat; oral, 25 mg/kg): 1.5 h

CCCC(CCC(=O)O)NC(=O)c1ccc2c(c1)OCO2 (stereo not shown)
Tmax (male Sprague-Dawley rat, plasma; oral, 20 mg/kg of parent drug): 0.5 h

COC(=O)/C=C/C(=O)c1ccc(OC)cc1
Tmax (Sprague-Dawley rat, plasma; oral, 200 mg/kg): ~0.6 h

Cc1cc(O)c2c(c1)C(=O)c1cc(O)cc(O)c1C2=O.Cc1cc(O)c2c(c1)C(=O)c1cc(O)cc(O)c1C2=O.Cc1nc(C)c(C)nc1C
Tmax (Sprague Dawley rat, plasma; oral, 100 mg/kg, alone or as equimolar cocrystal): 8.5 ± 3.89 h

Cc1ccc(OCC(=O)O)cc1
Tmax (Sprague-Dawley rat Crl:CD(SD), female, plasma; oral, 100 mg/kg/day of parent drug, day 90, 90-day repeated dosing): 3 h

CCCC(CCC)NC(=O)c1ccc(OC2OC(C(=O)O)C(O)C(O)C2O)c(OC)c1 (stereo not shown)
Tmax (female Sprague-Dawley rat, plasma; oral, 50 mg/kg of parent drug): 2.8 h

CN1CCN(c2ccc(Nc3ncc(Cl)c(Nc4ccccc4P(C)(C)=O)n3)cc2Br)CC1
Tmax (Sprague-Dawley rat, male, plasma; oral, 25 mg/kg): 0.5 h and 2 h and 0.3 h

C=C(c1ccc(C(=O)O)c(F)c1)c1cc2c(cc1C)C(C)(C)C=CC2(C)C
Tmax (rat Sprague-Dawley male, plasma; oral, 100 mg/kg, sesame oil): 1 h

Cc1ccc(/N=N/c2c(O)ccc3ccccc23)c(C)c1
Tmax (Sprague-Dawley rats both sexes, whole blood; oral, 50 mg/kg): ~1.36 h

CC/C=C\C/C=C\C/C=C\C/C=C\C/C=C\CCCCOC(CC)C(=O)O (stereo not shown)
Tmax (Wistar rat, male, mesenteric lymph; oral, 100 mg/kg): 3 h

CC(C)CNC(=O)/C=C/CCc1ccc2c(c1)OCO2
Tmax (rat, sham-operated, plasma; oral, 50 mg/kg): 0.22 ± 0.07 h

CC(=O)[CH](C(C)=O)[Pt-2]1([S+](C)C)[O]C(C)=CC(C)=[O+]1 (stereo not shown)
Tmax (measured: platinum; rat, whole blood; intravenous, dose not given): 0.5 h

O=C(O)CN1CCN(CC(=O)O)CCN(C(CCC(=O)NCc2ccc(NC(=S)NCCOCCOCCOCCNC(=O)CCCc3ccc(I)cc3)cc2)C(=O)O)CC1 (stereo not shown)
Tmax (dynamic PET/CT; Sprague-Dawley rats female, lumbar spinal canal L1-L2; intrathecal lumbar infusion, median): 1.25 h

CCCC(CCC)NC(=O)c1ccc(OS(=O)(=O)O)c(OC)c1
Tmax (male Sprague-Dawley rat, plasma; oral, 200 mg/kg of parent drug): 5 h

CC1(C)C2CCC1(C)C(OC(=O)/C=C/c1ccc(O)c(O)c1)C2 (stereo not shown)
Tmax (Sprague-Dawley rat, plasma; oral gavage, 30 mg/kg): 0.53 ± 0.28 h

Oc1ccc2ccccc2c1/N=N/c1ccc(/N=N/c2ccccc2)cc1
Tmax (Sprague-Dawley rats both sexes, whole blood; oral, 50 mg/kg): ~4.2 h

N=C(N)NCCC[C@H](NC(=O)[C@@H]1CCCN1C(=O)[C@H](Cc1ccccc1)NC(=O)[C@@H]1CCCN1C(=O)[C@H](Cc1c[nH]cn1)NC(=O)[C@@H](N)Cc1ccccc1)C(=O)O
Tmax (male Sprague-Dawley rat, plasma; intravenous, 10 mg/kg): 0.0333 h

C=C(c1cc(F)c(C(=O)O)c(F)c1)c1cc2c(cc1C)C(C)(C)CCC2(C)C
Tmax (rat Sprague-Dawley male, plasma; oral, 100 mg/kg, sesame oil): 1 h

CCCC(CCC)NC(=O)c1ccc(O)c(O)c1
Tmax (male Sprague-Dawley rat, plasma; oral, 20 mg/kg of parent drug): 0.31 h

A few entries again:
Oc1ccc2ccccc2c1/N=N/c1ccc(/N=N/c2ccccc2)cc1
Tmax (Sprague-Dawley rats both sexes, whole blood; oral, 50 mg/kg): ~4.2 h

C=C(c1cc(F)c(C(=O)O)c(F)c1)c1cc2c(cc1C)C(C)(C)CCC2(C)C
Tmax (rat Sprague-Dawley male, plasma; oral, 100 mg/kg, sesame oil): 1 h

Cc1cc(O)c2c(c1)C(=O)c1cc(O)cc(O)c1C2=O.Cc1cc(O)c2c(c1)C(=O)c1cc(O)cc(O)c1C2=O.Cc1nc(C)c(C)nc1C
Tmax (Sprague Dawley rat, plasma; oral, 100 mg/kg, alone or as equimolar cocrystal): 8.5 ± 3.89 h
